Published values gathered from unrelated publications.
Compare with care: the assays were run in different laboratories.
MET M1250T: Hepatocyte growth factor receptor (MET, Homo sapiens, UniProt P08581, M1250T)
MET: Hepatocyte growth factor receptor (MET, Homo sapiens, UniProt P08581)
MET Y1235D: Hepatocyte growth factor receptor (MET, Homo sapiens, UniProt P08581, Y1235D)

Cc1ccc(-c2c(/C=C(\C#N)C(=O)NC(C)C)n(CCCO)c3ncnc(N)c23)cc1  remaining binding (MET M1250T; cell-free assay, competition with immobilised ligand; 1 µM): 82%
CC(C)=CC1OC(C)(C)C2C=C3C(=O)C(Cl)=CC(O)C3C3C(O)C4OC4C(=O)C132 (centres unmarked)  remaining binding (MET; cell-free assay, competition with immobilised ligand; 10 µM): 89%
CNC1C[S+]2CC[S+]3CC[S+](C1)[Ru-4]321([N]=C=S)[n]2c3ccc(OC)cc3c3c4c(c5cc(F)c[n+]1c5c32)C(=O)NC4=O (centres unmarked)  remaining binding (MET; KinomeScan; 0.1 µM; baseline: untreated): 100%
COc1cc(Nc2nccc(-c3cnn4nc(OC)ccc34)n2)cc(C(F)(F)F)c1  remaining binding (MET Y1235D; binding; 1 µM): 100%
CC(=O)N1c2ccc(-c3ccc(CNC(=O)c4cn5cc(-c6cnc(N)nc6)nc(N6CCOCC6)c5n4)cc3)cc2CC[C@@H]1C  remaining binding (MET; KINOMEscan; 10 µM): 92%
C=CC(=O)N1CCCC(n2c(=O)c3ncccc3n(Cc3ccc(Oc4ccccc4)cc3)c2=O)C1 (centres unmarked)  remaining binding (MET M1250T; cell-free assay, competition with immobilised ligand; 1 µM): 92%
Nc1ncc2c(n1)-c1c([nH]c3ccc(C4=CCOCC4)cc13)CCC2  remaining binding (MET Y1235D; binding, competition with immobilised ligand; 1 µM): 100%
COc1ccc(NC(=O)Nc2ccc3c(c2)C(=O)N(C(C)CO)CC(C)C(CN(C)Cc2ccc4c(c2)OCO4)O3)cc1 (centres unmarked)  remaining binding (MET; binding, competition with immobilised ligand; 10 µM): 100%
Cc1cnc2nc1Nc1cccc(c1)COC/C=C/COCc1cc(ccc1OCCN1CCOCC1)N2  remaining binding (MET Y1235D; binding; 0.1 µM): 100%
C=CC(=O)N1CCc2ccc(-n3c(=O)ccc4cnc5ccc(-c6cnn(C)c6)cc5c43)cc21  remaining binding (MET; KINOMEscan; 1 µM; baseline: DMSO control): 100%
CNC(=O)C1CCN(c2cc(C)c(F)cc2NC(=O)c2ccc(-c3cc(O)ccc3C)c(C)c2)CC1  remaining binding (MET; binding, competition with immobilised ligand; 1 µM): 100%
COc1c(Cl)cccc1Nc1c(-c2ccncc2C#C[C@@]2(C)CCCN2C(=O)/C=C/CN(C)C)[nH]c2c1C(=O)NCC2  remaining binding (MET M1250T; cell-free assay, competition with immobilised ligand; 3 µM): 82%
CCN1CCN(Cc2ccc(C(=O)Nc3ccc(C)c(NCc4cnc5[nH]ccc5c4OC)c3)cc2C(F)(F)F)CC1  remaining binding (MET; binding, competition with immobilised ligand; 1 µM): 82%
CN1CCN(Cc2ccc(NC(=O)c3cccc(C#Cc4cnc(N)c5ncccc45)c3)cc2C(F)(F)F)CC1  remaining binding (MET; cell-free assay, competition with immobilised ligand; 0.5 µM): 79%

A few entries again:
CCN1CCN(Cc2ccc(C(=O)Nc3ccc(C)c(NCc4cnc5[nH]ccc5c4OC)c3)cc2C(F)(F)F)CC1  remaining binding (MET; binding, competition with immobilised ligand; 1 µM): 82%
CN1CCN(Cc2ccc(NC(=O)c3cccc(C#Cc4cnc(N)c5ncccc45)c3)cc2C(F)(F)F)CC1  remaining binding (MET; cell-free assay, competition with immobilised ligand; 0.5 µM): 79%
